Assay results gathered from unrelated publications.
Parts stem from different laboratories: compare values within a part only.
UniProt Q52WX2, sequence (whole entry, looked up): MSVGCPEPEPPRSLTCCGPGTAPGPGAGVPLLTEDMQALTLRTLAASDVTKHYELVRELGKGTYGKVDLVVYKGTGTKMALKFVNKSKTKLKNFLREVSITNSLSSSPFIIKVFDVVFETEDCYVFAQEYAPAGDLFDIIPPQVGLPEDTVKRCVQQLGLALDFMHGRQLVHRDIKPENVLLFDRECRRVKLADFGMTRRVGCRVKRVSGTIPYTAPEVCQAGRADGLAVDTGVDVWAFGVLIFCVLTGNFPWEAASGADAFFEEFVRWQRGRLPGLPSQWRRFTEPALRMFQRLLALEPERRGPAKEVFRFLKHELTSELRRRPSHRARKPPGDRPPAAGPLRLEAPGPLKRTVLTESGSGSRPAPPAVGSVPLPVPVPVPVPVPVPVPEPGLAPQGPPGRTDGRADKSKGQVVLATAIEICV
UniProt Q56UN5, sequence (whole entry, looked up): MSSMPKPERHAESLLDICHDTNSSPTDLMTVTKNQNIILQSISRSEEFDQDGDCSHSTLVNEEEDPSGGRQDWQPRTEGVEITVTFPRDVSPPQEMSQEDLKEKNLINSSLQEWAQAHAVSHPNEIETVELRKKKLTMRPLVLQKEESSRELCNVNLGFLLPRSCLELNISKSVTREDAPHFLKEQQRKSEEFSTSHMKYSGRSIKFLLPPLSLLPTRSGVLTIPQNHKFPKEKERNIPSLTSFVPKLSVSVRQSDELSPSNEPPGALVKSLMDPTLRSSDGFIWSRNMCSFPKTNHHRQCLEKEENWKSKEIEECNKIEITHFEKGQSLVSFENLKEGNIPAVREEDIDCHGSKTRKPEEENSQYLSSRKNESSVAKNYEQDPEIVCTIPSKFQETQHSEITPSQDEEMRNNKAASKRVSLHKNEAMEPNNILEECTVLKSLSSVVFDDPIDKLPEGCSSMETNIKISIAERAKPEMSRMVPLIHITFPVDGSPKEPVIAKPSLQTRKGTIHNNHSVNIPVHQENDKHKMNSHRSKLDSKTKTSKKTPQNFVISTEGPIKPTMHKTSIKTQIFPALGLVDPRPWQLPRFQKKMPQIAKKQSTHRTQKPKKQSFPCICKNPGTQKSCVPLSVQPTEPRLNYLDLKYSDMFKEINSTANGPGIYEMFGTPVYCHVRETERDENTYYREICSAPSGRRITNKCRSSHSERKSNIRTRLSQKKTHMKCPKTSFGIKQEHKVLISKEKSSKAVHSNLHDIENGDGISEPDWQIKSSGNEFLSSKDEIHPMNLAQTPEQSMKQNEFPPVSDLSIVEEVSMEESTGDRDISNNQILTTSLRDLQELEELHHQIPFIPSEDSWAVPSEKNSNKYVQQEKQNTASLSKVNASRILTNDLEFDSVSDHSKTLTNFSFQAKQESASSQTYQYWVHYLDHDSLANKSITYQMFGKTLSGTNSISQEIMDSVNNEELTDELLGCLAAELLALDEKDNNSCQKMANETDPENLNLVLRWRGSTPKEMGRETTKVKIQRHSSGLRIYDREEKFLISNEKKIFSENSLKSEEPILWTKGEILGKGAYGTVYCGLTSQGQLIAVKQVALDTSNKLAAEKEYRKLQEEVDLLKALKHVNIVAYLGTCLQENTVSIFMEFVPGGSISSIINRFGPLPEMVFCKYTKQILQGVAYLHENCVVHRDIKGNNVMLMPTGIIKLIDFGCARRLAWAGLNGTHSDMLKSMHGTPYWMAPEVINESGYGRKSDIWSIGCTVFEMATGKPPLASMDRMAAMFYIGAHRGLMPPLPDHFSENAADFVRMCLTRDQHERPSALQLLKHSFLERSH
UniProt P53350, sequence (whole entry, looked up): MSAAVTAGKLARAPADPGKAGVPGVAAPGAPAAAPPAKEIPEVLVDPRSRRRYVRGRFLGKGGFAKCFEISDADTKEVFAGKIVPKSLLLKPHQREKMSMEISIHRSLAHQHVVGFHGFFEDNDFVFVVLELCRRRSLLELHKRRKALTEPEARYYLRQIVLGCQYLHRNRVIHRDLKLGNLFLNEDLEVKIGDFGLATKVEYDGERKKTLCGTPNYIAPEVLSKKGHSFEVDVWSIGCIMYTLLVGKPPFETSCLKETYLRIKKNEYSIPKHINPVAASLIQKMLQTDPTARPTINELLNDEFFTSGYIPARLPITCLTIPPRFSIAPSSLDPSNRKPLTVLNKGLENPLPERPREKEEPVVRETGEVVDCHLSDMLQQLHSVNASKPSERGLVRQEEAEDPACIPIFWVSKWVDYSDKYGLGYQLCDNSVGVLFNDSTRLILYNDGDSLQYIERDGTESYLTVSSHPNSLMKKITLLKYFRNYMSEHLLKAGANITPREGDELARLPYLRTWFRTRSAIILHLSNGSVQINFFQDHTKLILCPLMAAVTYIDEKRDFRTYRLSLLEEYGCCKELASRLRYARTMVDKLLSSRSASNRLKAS
UniProt Q02750, sequence (whole entry, looked up): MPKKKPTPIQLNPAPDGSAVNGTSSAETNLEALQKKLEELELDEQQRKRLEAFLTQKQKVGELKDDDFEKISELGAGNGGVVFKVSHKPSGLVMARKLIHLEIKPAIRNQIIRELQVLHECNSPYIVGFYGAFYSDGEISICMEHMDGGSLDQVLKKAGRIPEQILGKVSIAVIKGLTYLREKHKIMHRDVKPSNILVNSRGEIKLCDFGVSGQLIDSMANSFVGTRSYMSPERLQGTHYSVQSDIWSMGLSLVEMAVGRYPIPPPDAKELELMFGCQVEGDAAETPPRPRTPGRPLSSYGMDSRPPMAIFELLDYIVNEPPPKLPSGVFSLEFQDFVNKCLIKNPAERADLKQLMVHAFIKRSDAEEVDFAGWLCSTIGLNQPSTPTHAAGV
UniProt Q2M2I8, sequence (whole entry, looked up): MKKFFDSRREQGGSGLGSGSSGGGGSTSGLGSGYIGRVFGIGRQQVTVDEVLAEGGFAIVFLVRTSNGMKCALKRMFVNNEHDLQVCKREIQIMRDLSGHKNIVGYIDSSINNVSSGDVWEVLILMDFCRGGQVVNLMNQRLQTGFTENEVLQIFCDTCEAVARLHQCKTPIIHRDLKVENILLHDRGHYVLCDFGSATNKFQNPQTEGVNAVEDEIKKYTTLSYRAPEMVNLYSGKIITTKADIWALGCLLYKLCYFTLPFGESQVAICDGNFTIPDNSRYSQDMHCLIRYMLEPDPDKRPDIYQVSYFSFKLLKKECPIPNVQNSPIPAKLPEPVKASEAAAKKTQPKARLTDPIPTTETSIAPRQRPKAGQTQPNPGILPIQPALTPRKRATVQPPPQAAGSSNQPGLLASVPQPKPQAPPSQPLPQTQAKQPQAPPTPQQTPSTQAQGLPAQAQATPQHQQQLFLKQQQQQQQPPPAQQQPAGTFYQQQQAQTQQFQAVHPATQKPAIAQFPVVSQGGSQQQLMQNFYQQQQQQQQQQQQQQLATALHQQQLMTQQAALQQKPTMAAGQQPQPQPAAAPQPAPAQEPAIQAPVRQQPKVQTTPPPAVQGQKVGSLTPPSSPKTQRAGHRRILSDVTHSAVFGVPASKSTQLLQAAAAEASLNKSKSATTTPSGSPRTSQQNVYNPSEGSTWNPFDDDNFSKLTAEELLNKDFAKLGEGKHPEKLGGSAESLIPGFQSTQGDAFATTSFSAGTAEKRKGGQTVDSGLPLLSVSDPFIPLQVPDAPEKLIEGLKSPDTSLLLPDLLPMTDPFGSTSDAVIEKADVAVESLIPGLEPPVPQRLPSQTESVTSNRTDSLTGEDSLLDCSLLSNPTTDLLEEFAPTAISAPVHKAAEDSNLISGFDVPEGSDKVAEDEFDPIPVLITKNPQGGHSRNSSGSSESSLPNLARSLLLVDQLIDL
UniProt O75716, sequence (whole entry, looked up): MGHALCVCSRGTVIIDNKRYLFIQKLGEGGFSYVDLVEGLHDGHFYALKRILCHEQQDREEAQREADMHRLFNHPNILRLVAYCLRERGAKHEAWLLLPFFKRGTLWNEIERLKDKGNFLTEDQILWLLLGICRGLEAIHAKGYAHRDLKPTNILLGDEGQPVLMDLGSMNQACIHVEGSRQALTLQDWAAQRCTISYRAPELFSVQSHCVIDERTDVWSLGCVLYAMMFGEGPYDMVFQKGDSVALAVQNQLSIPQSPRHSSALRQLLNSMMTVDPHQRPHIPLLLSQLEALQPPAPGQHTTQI

Block 1 — action: inhibitor; notes: literature data
Target: Synaptic vesicular amine transporter (SLC18A2, Homo sapiens, UniProt Q05940)
UniProt Q05940, sequence (whole entry, looked up): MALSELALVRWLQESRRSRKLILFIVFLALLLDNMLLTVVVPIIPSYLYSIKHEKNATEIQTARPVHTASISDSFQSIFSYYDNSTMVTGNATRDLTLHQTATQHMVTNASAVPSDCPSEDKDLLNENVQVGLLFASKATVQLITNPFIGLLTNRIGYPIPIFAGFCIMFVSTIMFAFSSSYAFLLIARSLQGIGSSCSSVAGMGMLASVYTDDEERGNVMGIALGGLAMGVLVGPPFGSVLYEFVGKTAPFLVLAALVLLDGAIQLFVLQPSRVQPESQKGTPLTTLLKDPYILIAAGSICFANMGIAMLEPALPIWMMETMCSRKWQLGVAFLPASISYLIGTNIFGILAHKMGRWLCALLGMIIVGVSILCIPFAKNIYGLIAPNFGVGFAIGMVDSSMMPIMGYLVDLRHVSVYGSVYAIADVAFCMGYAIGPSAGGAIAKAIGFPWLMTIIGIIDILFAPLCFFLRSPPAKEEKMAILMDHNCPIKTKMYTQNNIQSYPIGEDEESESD
`Cc1cc2c(s1)Nc1ccccc1N=C2N1CCN(C)CC1` has an IC50 of 98000 nM.
With `N[C@@H]1c2cccnc2[C@H](OC(=O)N2CCC(n3c(=O)[nH]c4ncccc43)CC2)CC[C@H]1c1cccc(F)c1F` the IC50 was over 10000 nM.
For `COCCCN1CCC(NC(=O)c2cc(Cl)c(N)c3c2OCC3)CC1`, the IC50 was 1900 nM.
With `CC(NCCc1ccc(O)cc1)C(O)c1ccc(O)cc1` (stereo not shown) the IC50 was 252 nM.
`CC(C(O)c1ccc(O)cc1)N1CCC(Cc2ccccc2)CC1` (stereo not shown) has an IC50 of 312 nM.
`CCOc1cc2ncc(C#N)c(Nc3ccc(OCc4ccccn4)c(Cl)c3)c2cc1NC(=O)/C=C/CN(C)C` has an IC50 of 868 nM.
For `CC12CC3CC(C)(C1)CC(N)(C3)C2`, the IC50 was over 10000 nM.
For `COCCCC/C(=N\OCCN)c1ccc(C(F)(F)F)cc1`, the IC50 was 21300 nM.
`COc1ccc2[nH]c([S+]([O-])Cc3ncc(C)c(OC)c3C)nc2c1` (stereo not shown) gave an IC50 of over 10000 nM.
`Cc1nc2n(c(=O)c1CCN1CCC(c3noc4cc(F)ccc34)CC1)CCCC2O` (stereo not shown) has an IC50 of 1270 nM.
For `CCC(C)n1ncn(-c2ccc(N3CCN(c4ccc(OCC5COC(Cn6cncn6)(c6ccc(Cl)cc6Cl)O5)cc4)CC3)cc2)c1=O` (stereo not shown), the IC50 was over 10000 nM.
`N#CC[C@H](C1CCCC1)n1cc(-c2ncnc3[nH]ccc23)cn1` has an IC50 of over 10000 nM.

Block 2 — concentration: 1 µM
Structure (SMILES): O=C(Nc1cccnn1)N1CCC(=Cc2cccc(Oc3ccc(C(F)(F)F)cn3)c2)CC1
HCK (Homo sapiens, UniProt P08631); cell-free assay, competition with immobilised ligand — remaining binding: 98%.
The remaining binding was 100% (SBK1 (Homo sapiens, UniProt Q52WX2); cell-free assay, competition with immobilised ligand).
The remaining binding was 81% (AKT2 (Homo sapiens, UniProt P31751); cell-free assay, competition with immobilised ligand).
It gave 92% for remaining binding (ERN1 (Homo sapiens, UniProt O75460); cell-free assay, competition with immobilised ligand).
It gave 85% for remaining binding (MAP3K19 (Homo sapiens, UniProt Q56UN5); cell-free assay, competition with immobilised ligand).
MAP2K1 (Homo sapiens, UniProt Q02750); cell-free assay, competition with immobilised ligand — remaining binding: 100%.
For LIM domain kinase 2 (LIMK2, Homo sapiens, UniProt P53671); cell-free assay, competition with immobilised ligand: remaining binding read 88%.
BMPR2 (Homo sapiens, UniProt Q13873); cell-free assay, competition with immobilised ligand — remaining binding: 100%.
For BMPR1B (Homo sapiens, UniProt O00238); cell-free assay, competition with immobilised ligand: remaining binding read 88%.
It gave 90% for remaining binding (STK16 (Homo sapiens, UniProt O75716); cell-free assay, competition with immobilised ligand).
For MYLK2 (Homo sapiens, UniProt Q9H1R3); cell-free assay, competition with immobilised ligand: remaining binding read 88%.
It gave 100% for remaining binding (BMP2K (Homo sapiens, UniProt Q9NSY1); cell-free assay, competition with immobilised ligand).
The remaining binding was 100% (MAP3K6 (Homo sapiens, UniProt O95382); cell-free assay, competition with immobilised ligand).
For MAP2K4 (Homo sapiens, UniProt P45985); cell-free assay, competition with immobilised ligand: remaining binding read 100%.
The remaining binding was 88% (ACVR1B (Homo sapiens, UniProt P36896); cell-free assay, competition with immobilised ligand).
AAK1 (Homo sapiens, UniProt Q2M2I8); binding — remaining binding: 74%.
PLK1 (Homo sapiens, UniProt P53350); cell-free assay, competition with immobilised ligand — remaining binding: 100%.
MELK (Homo sapiens, UniProt Q14680); cell-free assay, competition with immobilised ligand — remaining binding: 100%.

Block 3 — cell line: Huh-7; concentration: 10 µM; time: 24 h
With `NC(CO)C(=O)NNCc1ccc(O)c(O)c1O` (stereo not shown) the viability was 95.7%.
`CC(C)(CO)[C@@H](O)C(=O)NCCC(=O)O` has a viability of 98.2%.
`CCCc1nn(C)c2c(=O)[nH]c(-c3cc(S(=O)(=O)N4CCN(C)CC4)ccc3OCC)nc12` gave a viability of 95.4%.
With `Fc1ccc([C@@H]2CCNC[C@H]2COc2ccc3c(c2)OCO3)cc1` the viability was 91.6%.
`C[C@]12CCC(=O)C=C1CC[C@@H]1[C@@H]2C(=O)C[C@@]2(C)[C@H]1CC[C@]2(O)C(=O)CO` gave a viability of 95.2%.
The viability of `C[C@@H]1CCC[C@H](C)N1NC(=O)c1ccc(Cl)c(S(N)(=O)=O)c1` is reported as 99.9%.
`CCCCOc1ccc(C(=O)CCN2CCCCC2)cc1` has a viability of 93.9%.
For `NNCCc1ccccc1`, the viability was 97.3%.
With `CC(=O)O[C@H]1C(=O)[C@@]2(C)[C@H]([C@H](OC(=O)c3ccccc3)[C@]3(O)C[C@H](OC(=O)[C@H](O)[C@@H](NC(=O)c4ccccc4)c4ccccc4)C(C)=C1C3(C)C)[C@]1(OC(C)=O)CO[C@@H]1C[C@@H]2O` the viability was 62.3%.
`Cc1c(Nc2ncccc2C(=O)O)cccc1C(F)(F)F` gave a viability of 97.3%.
The viability of `CC[C@H]1OC(=O)[C@H](C)C(=O)[C@H](C)[C@@H](O[C@@H]2O[C@H](C)C[C@H](N(C)C)[C@H]2O)[C@](C)(OC)C[C@@H](C)C(=O)[C@H](C)[C@H]2N(CCCCn3cnc(-c4cccnc4)c3)C(=O)O[C@]12C` is reported as 52.5%.
The viability of `CCCCOC(=O)c1ccc(N)cc1` is reported as 97.6%.

Block 4 — effect on: enzyme activity; action: inhibitor; concentration: 0.5 µM; baseline: control
Target: MAP kinase-interacting serine/threonine-protein kinase 1 (MKNK1, Homo sapiens, UniProt Q9BUB5)
UniProt Q9BUB5, sequence (whole entry, looked up): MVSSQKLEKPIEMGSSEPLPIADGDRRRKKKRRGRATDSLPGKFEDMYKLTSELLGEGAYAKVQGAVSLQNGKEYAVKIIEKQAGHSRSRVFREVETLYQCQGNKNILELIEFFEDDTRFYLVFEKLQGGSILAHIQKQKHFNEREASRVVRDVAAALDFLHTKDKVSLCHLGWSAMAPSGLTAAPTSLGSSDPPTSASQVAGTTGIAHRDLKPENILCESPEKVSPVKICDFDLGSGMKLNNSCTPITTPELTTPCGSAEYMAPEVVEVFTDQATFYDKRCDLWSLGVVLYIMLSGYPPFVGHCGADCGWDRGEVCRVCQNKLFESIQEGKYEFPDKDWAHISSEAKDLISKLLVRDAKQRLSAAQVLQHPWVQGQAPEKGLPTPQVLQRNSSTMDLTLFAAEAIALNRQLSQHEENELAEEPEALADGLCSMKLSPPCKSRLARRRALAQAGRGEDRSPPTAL
`COc1cc2ncc(-c3ccccc3)nc2cc1OC` gave a remaining activity of 104%.
`Cn1cc(/C=C2\C(=O)Nc3ccc(S(N)(=O)=O)cc32)c2ccccc21` gave a remaining activity of 74.1%.
`O=c1cc(N2CCOCC2)oc2c1ccc1ccccc12` has a remaining activity of 95%.
With `C[S+]([O-])c1ccc(-c2nc(-c3ccncc3)c(-c3ccc(F)cc3)[nH]2)cc1` (stereo not shown) the remaining activity was 98.5%.
The remaining activity of `CCN1/C(=C/C(C)=O)Sc2ccc(OC)cc21` is reported as 119%.
`CCC(=O)Nc1ccc2ncnc(Nc3cccc(Br)c3)c2c1` gave a remaining activity of 82.8%.
The remaining activity of `CC(=O)O/N=C1/C(c2c(O)[nH]c3cc(Br)ccc23)=Nc2ccccc21` is reported as 95.2%.
With `CC(C)c1nn(-c2c(Cl)cccc2Cl)c2nc(Cc3ccc(OCCO)cc3)[nH]c(=O)c12` the remaining activity was 110%.
For `O=C1NC(=O)/C(=C/c2ccc3nccnc3c2)S1`, the remaining activity was 96.5%.
With `COc1cc2ncnc(N3CCN(C(=O)Nc4ccc(Oc5ccccc5)cc4)CC3)c2cc1OC` the remaining activity was 94.9%.
For `COc1cc2ncnc(Nc3ccc(OCc4ccccc4)cc3)c2cc1OC`, the remaining activity was 101%.
For `Cn1cnc2cc3c(Nc4cccc(Br)c4)ncnc3cc21`, the remaining activity was 39.9%.
With `O=C(Nc1ccc(Cl)cc1)c1ccccc1NCc1ccncc1` the remaining activity was 118%.
`CC(C)[C@H](CO)Nc1nc(Nc2cccc(Cl)c2)c2ncn(C(C)C)c2n1` has a remaining activity of 79.8%.
With `COc1ccc(-c2cnc3c(-c4ccsc4)cnn3c2)cc1` the remaining activity was 87.1%.
`Cc1nc(Nc2ncc(C(=O)Nc3c(C)cccc3Cl)s2)cc(N2CCN(CCO)CC2)n1` gave a remaining activity of 91.3%.
The remaining activity of `CCOc1cc2ncnc(Nc3cccc(Br)c3)c2cc1OCC` is reported as 46%.
The remaining activity of `Cc1ccc(NC(=O)c2ccc(CN3CCN(C)CC3)cc2)cc1Nc1nccc(-c2cccnc2)n1` is reported as 94.6%.
`CN(C)CCCn1cc(C2=C(c3c[nH]c4ccccc34)C(=O)NC2=O)c2ccccc21` gave a remaining activity of 81.2%.
With `Nc1[nH]nc2nnc(-c3c(-c4ccccc4)nn4ccccc34)cc12` the remaining activity was 98.5%.
With `COc1ccc(Cl)cc1NC(=O)Nc1cc(C)nc2ccccc12` the remaining activity was 101%.
With `CS(=O)(=O)CCNCc1ccc(-c2ccc3ncnc(Nc4ccc(OCc5cccc(F)c5)c(Cl)c4)c3c2)o1` the remaining activity was 94.5%.
